Published values gathered from unrelated publications.
Every numbered part comes from another study and shows a few of its results, in no order. Values joined by “and” are separate records of one study, mostly repeats; a detail may differ. Substitutions count along the parent as printed. Values after ≈ are worked out from the molar mass of the structure shown.
Chain of UniProt P10721 (whole entry, unmodified, looked up): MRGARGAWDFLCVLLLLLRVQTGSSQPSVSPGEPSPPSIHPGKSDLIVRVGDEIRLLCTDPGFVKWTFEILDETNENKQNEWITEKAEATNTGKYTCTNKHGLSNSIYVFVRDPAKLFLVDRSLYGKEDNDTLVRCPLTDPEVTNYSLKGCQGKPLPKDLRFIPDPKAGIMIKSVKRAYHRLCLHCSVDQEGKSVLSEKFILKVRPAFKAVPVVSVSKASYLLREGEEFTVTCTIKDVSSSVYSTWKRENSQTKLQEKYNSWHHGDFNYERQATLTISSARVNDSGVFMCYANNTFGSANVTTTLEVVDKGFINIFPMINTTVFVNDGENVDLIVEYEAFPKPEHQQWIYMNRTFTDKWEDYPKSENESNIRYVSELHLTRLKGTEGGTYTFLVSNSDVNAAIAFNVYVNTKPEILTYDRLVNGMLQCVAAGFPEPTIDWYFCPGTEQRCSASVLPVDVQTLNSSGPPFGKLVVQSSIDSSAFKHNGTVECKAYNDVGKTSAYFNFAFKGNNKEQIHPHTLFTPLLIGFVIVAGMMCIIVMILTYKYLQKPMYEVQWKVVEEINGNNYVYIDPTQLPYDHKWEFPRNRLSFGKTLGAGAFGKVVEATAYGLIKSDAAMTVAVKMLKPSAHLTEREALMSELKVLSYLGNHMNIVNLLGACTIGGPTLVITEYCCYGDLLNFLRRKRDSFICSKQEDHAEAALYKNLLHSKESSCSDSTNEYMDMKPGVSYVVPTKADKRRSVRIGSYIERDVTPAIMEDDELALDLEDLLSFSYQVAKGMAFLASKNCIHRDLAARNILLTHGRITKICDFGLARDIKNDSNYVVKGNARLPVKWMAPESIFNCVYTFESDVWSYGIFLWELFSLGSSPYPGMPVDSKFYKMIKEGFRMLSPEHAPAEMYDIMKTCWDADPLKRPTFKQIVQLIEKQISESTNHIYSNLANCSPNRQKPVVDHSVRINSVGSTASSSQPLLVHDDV
Chain of UniProt P27361 (whole entry, looked up): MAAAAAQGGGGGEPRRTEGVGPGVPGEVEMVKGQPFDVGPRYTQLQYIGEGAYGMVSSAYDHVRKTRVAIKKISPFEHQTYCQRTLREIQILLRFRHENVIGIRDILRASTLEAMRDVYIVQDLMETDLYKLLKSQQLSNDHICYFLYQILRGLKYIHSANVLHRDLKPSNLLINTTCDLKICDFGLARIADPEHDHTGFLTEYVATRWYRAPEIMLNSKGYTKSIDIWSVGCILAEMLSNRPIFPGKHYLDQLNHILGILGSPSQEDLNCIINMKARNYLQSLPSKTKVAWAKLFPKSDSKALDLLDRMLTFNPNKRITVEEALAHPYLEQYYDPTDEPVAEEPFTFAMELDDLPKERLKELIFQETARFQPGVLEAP
Chain of UniProt Q15569 (whole entry, looked up): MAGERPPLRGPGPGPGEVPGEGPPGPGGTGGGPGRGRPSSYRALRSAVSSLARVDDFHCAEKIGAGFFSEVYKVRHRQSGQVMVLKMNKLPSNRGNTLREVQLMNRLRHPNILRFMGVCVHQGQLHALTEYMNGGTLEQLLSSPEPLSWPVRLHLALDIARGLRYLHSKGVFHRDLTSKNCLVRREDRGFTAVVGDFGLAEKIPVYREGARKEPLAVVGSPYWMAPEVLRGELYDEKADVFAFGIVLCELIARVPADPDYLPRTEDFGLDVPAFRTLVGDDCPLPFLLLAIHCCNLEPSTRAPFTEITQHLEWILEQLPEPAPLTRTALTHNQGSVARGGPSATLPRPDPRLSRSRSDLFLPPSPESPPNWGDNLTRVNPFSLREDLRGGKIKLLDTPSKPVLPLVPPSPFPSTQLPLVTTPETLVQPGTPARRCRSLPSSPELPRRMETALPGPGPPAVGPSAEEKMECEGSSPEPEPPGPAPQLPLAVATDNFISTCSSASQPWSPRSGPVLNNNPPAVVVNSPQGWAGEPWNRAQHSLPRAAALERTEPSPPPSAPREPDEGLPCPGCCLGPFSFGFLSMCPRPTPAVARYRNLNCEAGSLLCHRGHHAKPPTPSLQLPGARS
Chain of UniProt Q8IWQ3 (whole entry, looked up): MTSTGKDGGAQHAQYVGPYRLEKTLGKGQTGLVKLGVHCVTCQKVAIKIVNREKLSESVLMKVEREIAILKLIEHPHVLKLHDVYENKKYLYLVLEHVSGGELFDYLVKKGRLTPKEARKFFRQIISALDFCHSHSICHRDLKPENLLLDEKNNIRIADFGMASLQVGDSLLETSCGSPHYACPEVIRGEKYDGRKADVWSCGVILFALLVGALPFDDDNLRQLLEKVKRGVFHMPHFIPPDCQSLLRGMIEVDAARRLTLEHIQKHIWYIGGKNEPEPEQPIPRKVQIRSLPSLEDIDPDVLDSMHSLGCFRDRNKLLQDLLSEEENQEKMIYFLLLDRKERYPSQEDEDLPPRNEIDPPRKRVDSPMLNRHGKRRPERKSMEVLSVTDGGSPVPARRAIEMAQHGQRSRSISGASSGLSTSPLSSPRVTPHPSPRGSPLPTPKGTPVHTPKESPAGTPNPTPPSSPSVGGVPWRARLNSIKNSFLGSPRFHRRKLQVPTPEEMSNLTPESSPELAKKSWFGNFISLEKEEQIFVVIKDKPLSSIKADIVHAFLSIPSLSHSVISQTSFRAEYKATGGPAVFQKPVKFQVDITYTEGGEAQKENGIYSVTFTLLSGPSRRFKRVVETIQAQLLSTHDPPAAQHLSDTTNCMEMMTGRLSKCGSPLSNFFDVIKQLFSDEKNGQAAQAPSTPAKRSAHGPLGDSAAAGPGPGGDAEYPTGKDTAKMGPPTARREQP
Chain of UniProt Q9UPE1 (whole entry, looked up): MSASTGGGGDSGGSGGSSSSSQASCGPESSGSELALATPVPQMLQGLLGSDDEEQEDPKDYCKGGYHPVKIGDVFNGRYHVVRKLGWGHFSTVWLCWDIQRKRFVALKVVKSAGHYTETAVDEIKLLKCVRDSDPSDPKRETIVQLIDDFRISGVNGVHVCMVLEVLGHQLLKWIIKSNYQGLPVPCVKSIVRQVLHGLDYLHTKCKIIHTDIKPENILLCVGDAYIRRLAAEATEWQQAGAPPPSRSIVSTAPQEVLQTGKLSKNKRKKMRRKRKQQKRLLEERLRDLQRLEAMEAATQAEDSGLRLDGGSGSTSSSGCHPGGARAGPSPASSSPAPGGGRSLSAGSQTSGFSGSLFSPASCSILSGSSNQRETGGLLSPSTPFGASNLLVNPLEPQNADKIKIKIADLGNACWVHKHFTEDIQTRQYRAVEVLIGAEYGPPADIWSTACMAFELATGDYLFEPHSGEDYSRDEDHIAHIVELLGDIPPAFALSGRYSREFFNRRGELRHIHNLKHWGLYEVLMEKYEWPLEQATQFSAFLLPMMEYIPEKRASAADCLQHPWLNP
Chain of UniProt Q9P286 (whole entry, looked up): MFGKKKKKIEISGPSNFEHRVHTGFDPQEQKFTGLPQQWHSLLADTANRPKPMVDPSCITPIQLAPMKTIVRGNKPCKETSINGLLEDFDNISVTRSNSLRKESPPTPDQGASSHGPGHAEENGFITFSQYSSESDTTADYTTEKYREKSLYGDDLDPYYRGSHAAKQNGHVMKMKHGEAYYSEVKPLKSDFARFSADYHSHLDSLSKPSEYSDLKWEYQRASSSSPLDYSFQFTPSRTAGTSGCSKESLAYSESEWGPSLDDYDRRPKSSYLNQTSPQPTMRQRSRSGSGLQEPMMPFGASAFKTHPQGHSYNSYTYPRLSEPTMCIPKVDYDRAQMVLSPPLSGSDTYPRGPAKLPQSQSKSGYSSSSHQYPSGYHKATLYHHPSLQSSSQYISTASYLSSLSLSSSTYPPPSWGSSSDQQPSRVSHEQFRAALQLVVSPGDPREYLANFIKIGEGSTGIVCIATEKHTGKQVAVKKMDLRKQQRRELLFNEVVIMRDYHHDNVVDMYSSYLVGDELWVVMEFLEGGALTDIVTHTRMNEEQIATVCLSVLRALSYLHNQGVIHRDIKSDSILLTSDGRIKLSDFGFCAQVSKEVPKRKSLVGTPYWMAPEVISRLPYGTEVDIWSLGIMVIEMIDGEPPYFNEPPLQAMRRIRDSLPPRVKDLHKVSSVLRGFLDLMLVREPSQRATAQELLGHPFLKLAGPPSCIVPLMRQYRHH
Chain of UniProt Q9Y6E0 (whole entry, looked up): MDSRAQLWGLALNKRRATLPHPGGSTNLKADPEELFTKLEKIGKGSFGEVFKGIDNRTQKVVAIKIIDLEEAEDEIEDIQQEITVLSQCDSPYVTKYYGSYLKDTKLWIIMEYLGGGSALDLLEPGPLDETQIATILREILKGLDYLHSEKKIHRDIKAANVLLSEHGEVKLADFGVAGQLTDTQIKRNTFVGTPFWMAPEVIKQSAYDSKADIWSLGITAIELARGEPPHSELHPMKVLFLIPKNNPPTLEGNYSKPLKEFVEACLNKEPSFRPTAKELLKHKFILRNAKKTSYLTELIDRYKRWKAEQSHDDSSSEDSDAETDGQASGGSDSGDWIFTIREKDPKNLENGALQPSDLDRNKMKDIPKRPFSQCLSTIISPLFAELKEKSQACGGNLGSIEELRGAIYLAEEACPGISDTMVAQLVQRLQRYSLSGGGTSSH

Set 1 — read-out: RNA clamping; method: fluorescence polarization; tested at: concentration not given; notes: mean of two replicates; with: FAM-labelled poly r(AG)8 RNA
Target: Eukaryotic initiation factor 4A-III (Homo sapiens, UniProt P38919)
Chain of UniProt P38919 (whole entry, looked up): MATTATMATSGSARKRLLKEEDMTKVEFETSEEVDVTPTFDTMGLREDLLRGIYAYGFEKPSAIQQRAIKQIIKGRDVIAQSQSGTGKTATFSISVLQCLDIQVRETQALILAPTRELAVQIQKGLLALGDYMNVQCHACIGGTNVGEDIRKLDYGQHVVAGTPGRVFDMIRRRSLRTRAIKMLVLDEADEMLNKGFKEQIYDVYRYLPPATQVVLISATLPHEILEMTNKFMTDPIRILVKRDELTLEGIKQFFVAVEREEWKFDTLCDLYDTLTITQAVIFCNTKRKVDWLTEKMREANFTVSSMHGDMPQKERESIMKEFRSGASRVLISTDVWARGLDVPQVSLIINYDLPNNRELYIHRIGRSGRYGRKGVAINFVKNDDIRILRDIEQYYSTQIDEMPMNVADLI
SMILES	fluorescence polarization change
COc1ccc([C@@]23Oc4cc(OC)cc(OC)c4[C@]2(O)c2nc4n(c(=O)c2[C@H]3c2ccccc2)CCCC4)cc1	25.4 mP
CONC(=O)[C@@H]1[C@@H](O)[C@@]2(O)c3c(OC)cc(OC)cc3O[C@@]2(c2ccc(Br)cc2)[C@H]1c1ccccc1	12.1 mP
COc1ccc([C@@]23Oc4cc(OC)cc(OC)c4[C@]2(O)c2nc[nH]c(=O)c2[C@H]3c2ccccc2)cc1	12.9 mP
COC(=O)[C@H]1[C@@H](c2ccccc2)C2(c3ccc(OC)cc3)Oc3cc(OC)cc(OC)c3[C@@]1(O)C2=O	0.6 mP
COc1ccc([C@@]23Oc4cc(OC)cc(OC)c4[C@]2(O)c2nc4n(c(=O)c2[C@H]3c2ccccc2)CCC4)cc1	46 mP and 38.9 mP
COC(=O)[C@H]1[C@@H](O)[C@@]2(O)c3c(OC)cc(O)cc3O[C@@]2(c2ccc(OC)cc2)[C@@H]1c1ccccc1	41.2 mP

Set 2 — read-out: cell-free assay; method: competition with immobilised ligand; tested at: 1 µM
Compound: Cn1cncc1[C@](O)(COc1ccc(C#N)cc1-c1ccc(OC(F)(F)F)cc1)c1ccc(C#N)cc1
target	remaining binding [%]
BRSK2 (Homo sapiens, UniProt Q8IWQ3)	48
TESK1 (Homo sapiens, UniProt Q15569)	100
KIT (Homo sapiens, UniProt P10721, D816V)	85
Mast/stem cell growth factor receptor Kit, autoinhibited (KIT, Homo sapiens, UniProt P10721)	95
FLT3 (Homo sapiens, UniProt P36888, N841I)	91
EGFR (Homo sapiens, UniProt P00533, G719S)	79
MAPK3 (Homo sapiens, UniProt P27361)	90
PIK3CA (Homo sapiens, UniProt P42336, E545A)	100
MAP3K7 (Homo sapiens, UniProt O43318)	100
STK38 (Homo sapiens, UniProt Q15208)	75
PRKCD (Homo sapiens, UniProt Q05655)	66
SRPK3 (Homo sapiens, UniProt Q9UPE1)	53
PLK4 (Homo sapiens, UniProt O00444)	94
RIOK1 (Homo sapiens, UniProt Q9BRS2)	72
PAK5 (Homo sapiens, UniProt Q9P286)	94
BRAF (Homo sapiens, UniProt P15056)	84
STK24 (Homo sapiens, UniProt Q9Y6E0)	90
EGFR (Homo sapiens, UniProt P00533, del752-759)	78

Set 3 — target: inorganic phosphate, free oxyanion; method: microfluidic competitive inhibition; sample: in vitro, cell-free expressed; tested at: not given; direction: lower = stronger binding
Notes: derived from inhibition constants, unchanged parent 615000 nM
Starting sequence: PafA, mature enzyme, eGFP fusion (Elizabethkingia meningoseptica, UniProt Q9KJX5); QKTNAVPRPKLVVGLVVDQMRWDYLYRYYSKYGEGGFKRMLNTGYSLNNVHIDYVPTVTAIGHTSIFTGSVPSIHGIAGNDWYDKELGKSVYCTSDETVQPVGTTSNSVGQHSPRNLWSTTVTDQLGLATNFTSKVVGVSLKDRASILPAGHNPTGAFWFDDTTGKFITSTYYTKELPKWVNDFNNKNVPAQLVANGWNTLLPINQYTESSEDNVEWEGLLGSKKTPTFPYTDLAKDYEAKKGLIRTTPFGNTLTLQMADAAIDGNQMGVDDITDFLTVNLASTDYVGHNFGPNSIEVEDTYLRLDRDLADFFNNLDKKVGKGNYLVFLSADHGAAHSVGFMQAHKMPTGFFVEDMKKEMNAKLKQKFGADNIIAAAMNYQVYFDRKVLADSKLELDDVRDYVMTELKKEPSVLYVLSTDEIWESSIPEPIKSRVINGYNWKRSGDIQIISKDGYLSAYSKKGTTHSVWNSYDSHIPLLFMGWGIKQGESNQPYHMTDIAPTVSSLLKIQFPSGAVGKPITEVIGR
Variant	phosphate dissociation constant [µM]
R443V	515
G76A	488
T248V	540
S146V	416
F276V	478
A191V	624
L234V	608
Y54G	41.4

Set 4 — organism: Staphylococcus aureus; strain: USA300
Compound: CCCCC[C@@H](O)CC(=O)N[C@H]1COC(=O)[C@H](CO)NC(=O)CNC(=O)[C@H]([C@@H](C)O)NC(=O)[C@H](Cc2ccccc2)NC(=O)[C@@H](Cc2c[nH]c3ccccc23)NC(=O)[C@@H]([C@H](C)O)NC(=O)[C@H](CC(N)=O)NC(=O)[C@@H]([C@H](C)O)NC(=O)[C@H](CC(C)C)NC(=O)[C@@H](Cc2c[nH]c3ccccc23)N(C)C(=O)CNC(=O)[C@H](CO)NC(=O)[C@@H](CO)NC1=O
with	MIC [mg/L]
menaquinone 0.5 µg/mL	32 (≈ 19.2 µM)
menaquinone 0.0625 µg/mL	8 (≈ 4.79 µM)
menaquinone 1 µg/mL	64 (≈ 38.4 µM)
ubiquinone 4 µg/mL	8 (≈ 4.79 µM)

A few entries again (set 1):
SMILES	fluorescence polarization change
COC(=O)[C@H]1[C@@H](O)[C@@]2(O)c3c(OC)cc(O)cc3O[C@@]2(c2ccc(OC)cc2)[C@@H]1c1ccccc1	41.2 mP
CONC(=O)[C@@H]1[C@@H](O)[C@@]2(O)c3c(OC)cc(OC)cc3O[C@@]2(c2ccc(Br)cc2)[C@H]1c1ccccc1	12.1 mP
